Results pooled from the literature.
Each line is one published result; not all experiments were run side by side.
rhlR: HTH-type quorum-sensing regulator RhlR (rhlR, Pseudomonas aeruginosa, UniProt P54292)
Chain of UniProt P54292 (whole entry, looked up): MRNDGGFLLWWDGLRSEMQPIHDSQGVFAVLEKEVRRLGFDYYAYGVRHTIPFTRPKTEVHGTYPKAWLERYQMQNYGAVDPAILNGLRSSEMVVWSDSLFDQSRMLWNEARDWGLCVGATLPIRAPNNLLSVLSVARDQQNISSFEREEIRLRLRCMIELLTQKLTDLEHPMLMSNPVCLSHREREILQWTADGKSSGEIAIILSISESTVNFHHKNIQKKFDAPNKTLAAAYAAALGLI
T1: dsDNA, duplex; chain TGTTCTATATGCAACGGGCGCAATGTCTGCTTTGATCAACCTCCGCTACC; chain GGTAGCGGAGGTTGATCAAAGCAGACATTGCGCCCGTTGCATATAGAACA
T2: dsDNA, duplex; CGCGAATTCGCG
T3: dsDNA; chain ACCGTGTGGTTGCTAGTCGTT; chain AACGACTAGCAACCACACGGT
T4: FMN riboswitch RNA, two annealed strands (Fusobacterium nucleatum); chain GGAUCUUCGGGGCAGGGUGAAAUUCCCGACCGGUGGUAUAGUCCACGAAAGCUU; chain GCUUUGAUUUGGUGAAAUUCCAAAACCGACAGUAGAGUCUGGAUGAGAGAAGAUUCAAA
Chain of UniProt O75716 (whole entry, looked up): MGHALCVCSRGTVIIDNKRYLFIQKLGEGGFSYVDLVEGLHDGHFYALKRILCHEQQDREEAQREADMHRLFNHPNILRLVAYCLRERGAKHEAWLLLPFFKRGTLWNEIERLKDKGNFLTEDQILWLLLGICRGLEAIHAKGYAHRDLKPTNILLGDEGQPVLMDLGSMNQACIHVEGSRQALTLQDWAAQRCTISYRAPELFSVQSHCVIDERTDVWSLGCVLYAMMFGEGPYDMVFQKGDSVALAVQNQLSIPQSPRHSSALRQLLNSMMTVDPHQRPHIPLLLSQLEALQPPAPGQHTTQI

SMILES = COc1cccc2c1C(=O)c1c(O)c3c(c(O)c1C2=O)C[C@@](O)(C(=O)CO)C[C@@H]3O[C@H]1C[C@H](N)[C@H](O)[C@H](C)O1; target = T1, dsDNA, duplex; test = DLS, TEM; setting = qualitative; binding = binds
SMILES = N=C(N)c1ccc(-c2ccc(-c3cc4ccc(C(=N)N)cc4[nH]3)s2)cc1; target = T2, dsDNA, duplex; test = X-ray crystallography; binding = binds
SMILES = O=C(C#Cc1ccc(F)c(F)c1)c1ccccc1Cl; target = rhlR; test = receptor binding; setting = concentration not given, 1.5 h, together with: BHL at 1:1 ratio; how to read = baseline: control; binding = 63%
SMILES = N=C(N)c1ccc(-c2ccc(-c3nc4ccc(C(=N)N)cc4[nH]3)s2)cc1; target = T2, dsDNA, duplex; test = X-ray crystallography; binding = binds
SMILES = CC[n+]1c(-c2ccccc2)c2cc(N)ccc2c2ccc(N)cc21; target = T3, dsDNA; test = fluorescence enhancement; setting = 20 °C, Mg2+ 12.5 mM, ethidium displacement; binding = binds
SMILES = Cc1cc2nc3c(=O)[nH]c(=O)nc-3n(C[C@H](O)[C@H](O)[C@H](O)CO)c2cc1C; target = T4, FMN riboswitch RNA, two annealed strands (Fusobacterium nucleatum); test = competitor, MALDI-TOF-MS; setting = 100 µM, together with: riboflavin 150 µM; binding = binds
SMILES = O=C(C#Cc1ccc(F)c(F)c1)c1cccc(Cl)c1; target = rhlR; test = receptor binding; setting = concentration not given, 1.5 h, together with: BHL at 1:1 ratio; how to read = baseline: control; binding = 72%
SMILES = O=C(O)/C=C/c1ccc(O)c(O)c1; target = Keap1 Kelch domain N532A mutant (human); test = isothermal titration calorimetry; setting = concentration not given; binding = no binding
SMILES = COc1cc(C#CC(=O)CC(C)C)ccc1O; target = rhlR; test = receptor binding; setting = concentration not given, 1.5 h, together with: BHL at 1:1 ratio; how to read = baseline: control; binding = 81%
SMILES = CCOc1ccc2c(-c3cc(C)nc(Nc4cc(OC)cc(C(F)(F)F)c4)n3)cnn2n1; target = Serine/threonine-protein kinase 16 (STK16, Homo sapiens, UniProt O75716); test = NanoBRET target engagement; system = live cells; setting = concentration not given, no binding; binding = no binding

Repeated from above:
SMILES = Cc1cc2nc3c(=O)[nH]c(=O)nc-3n(C[C@H](O)[C@H](O)[C@H](O)CO)c2cc1C; target = T4, FMN riboswitch RNA, two annealed strands (Fusobacterium nucleatum); test = competitor, MALDI-TOF-MS; setting = 100 µM, together with: riboflavin 150 µM; binding = binds
SMILES = COc1cc(C#CC(=O)CC(C)C)ccc1O; target = rhlR; test = receptor binding; setting = concentration not given, 1.5 h, together with: BHL at 1:1 ratio; how to read = baseline: control; binding = 81%
